Published values from different studies.
Lines come from different studies, so protocols differ. ± marks the error that the study gave.

| Structure (SMILES) | cell line | test | conditions | scale | measurement | value |
| --- | --- | --- | --- | --- | --- | --- |
| CC(=O)N[C@@H]1[C@@H](OC(C)=O)[C@H](OC(C)=O)[C@@H](COC(C)=O)O[C@H]1[Se]Sc1ccccc1 | J774 | cell growth or viability, WST-1 | 24 h | – | CC50 | 28.7 µM |
| O=C(Cc1ccc(OCc2ccccc2)cc1)NC1(C(=O)O)CCN(C(=O)c2ccc(-c3cccc(Cl)c3)cc2)CC1 | LX-2 | cytotoxicity | 3 days | – | IC50 | > 100 µM |
| CN1/C(=C/C=C/c2cc(-c3ccccc3)cc(-c3ccccc3)[o+]2)C(C)(C)c2ccccc21 | J774 | cell growth or viability, MTT | 6 h | – | CC50 | 18.7 µM |
| C[C@H](CCC=O)[C@@H]1CC[C@]2(C)C3=C(CC[C@@]12C)[C@@]1(C)CC[C@H](O)C(C)(C)[C@@H]1CC3 | COS-7 | cell growth or viability, SRB | 50 µM | – | inhibition | 22% |
| Cc1ccc(N2Cc3cc(NC(=O)N4CCN(c5cccc(C(F)(F)F)c5)CC4)ccc3C2=O)cc1 | primary mouse macrophages | – | concentration not given | – | cytotoxicity | not toxic |
| COc1ccc2c(c1)c1c(C)c3cnccc3c(C)c1n2CCCN1CCN(C)CC1 | SH-SY5Y | cell growth | – | – | IC50 | 1.8 ± 0.6 µM |
| CC/C(=C(\c1ccc(O)cc1)c1ccc(OCCN(C)CCOCCN(C)CCOc2ccc(/C(=C(/CC)c3ccccc3)c3ccc(O)cc3)cc2)cc1)c1ccccc1 | U2OS transfected with ERα | – | 10 µM, cytotoxicity | – | cell density | 81% |
| Cn1cc2c(n1)CN(C(=O)Nc1nc(-c3ccc(F)cc3)ccc1N)C2 | human bone marrow erythroid progenitors | – | 10 µM, 14 days | reference: untreated | colony formation | 16% |
| CC(=O)OC[C@H]1O[C@@H]([Se]Sc2ccccc2)[C@H](OC(C)=O)[C@@H](OC(C)=O)[C@@H]1OC(C)=O | J774 | cell growth or viability, WST-1 | 24 h | – | CC50 | 5.1 µM |
| O=c1c(-c2nc3ccccc3s2)cc2c(n1NS(=O)(=O)c1ccc(Cl)cc1)CCCCCC2 | Huh7.5, uninfected | trypan blue exclusion | – | – | CC50 | 310 µg/mL |
| O=c1c(Br)c2oc3c(CN(Cc4ccccn4)Cc4cnccn4)c(O)ccc3nc-2c2ccccc12 | RAW 246.7 | colocalisation with ER-Tracker | – | – | Pearson's coefficient | 0.575 |
| CC(=O)N[C@H](C(=O)N[C@H](C(=O)N[C@@H](CCCNC(=N)N)C(=O)N1Cc2ccccc2C[C@H]1C(=O)N[C@@H](Cc1ccccc1)C(N)=O)C1CCCCC1)C(C)C | human PBMC | Bio-Plex multiplex, measured: FGF | 250 µg/mL, 24 h | – | cytokine level | < 4.5 pg/mL |
| COc1ccc(-c2ccc3oc(-c4ccc(OC)cc4)c(C#CC4(O)CCCCC4)c3c2)cc1 | primary human hepatocytes | – | – | – | CC50 | > 100 µM |
| Cc1cc(C)cc(C(=O)Nc2cccc(S(N)(=O)=O)c2)c1 | HEK293T | cell viability, MTT | 100 µM, 24 to 48 h | – | cytotoxicity | 14 ± 0.01% |
| COc1ccc(-c2oc3ccc(-c4cc(OC)c(OC)c(OC)c4)cc3c2C#CC2(O)CCCCC2)cc1 | primary human hepatocytes | – | – | – | CC50 | > 31.6 µM |
| O=C(NCCN1CCCC1)c1ccc2cc(C(=O)c3cc(O)c(O)c(O)c3)oc2c1 | HEK293T | CellTiter-Glo | concentration not given, 24 and 72 h | – | cytotoxicity | not toxic |
| C[C@H](NP(=O)(O)OC[C@H]1O[C@@](C#N)(c2ccc3c(N)ncnn23)[C@H](O)[C@@H]1O)C(=O)O | primary human hepatocytes | Seahorse OCR, measured: spare respiratory capacity | 3 days | – | CC50 | > 100 µM |
| COc1cc(/C=C/C(C)=NO)ccc1OCC(=O)Nc1ccccc1Cl (stereo in doubt) | SH-SY5Y | MTT | concentration not given | – | cytotoxicity | toxic |
| CC1=C(/C=C/C(=O)N2CCN(C(N)=O)CC2)C(C)(C)CCC1 | T-REx-293 expressing human T17M opsin | cytotoxicity | 2 days | – | toxic concentration | ≥ 80 µM |

| Structure (SMILES) | cell line | test | conditions | scale | measurement | value |
| --- | --- | --- | --- | --- | --- | --- |
| CC(=O)OC[C@H]1O[C@@H]([Se]C(C)=O)[C@H](OC(C)=O)[C@@H](OC(C)=O)[C@@H]1OC(C)=O | J774 | cell growth or viability, WST-1 | 24 h | – | CC50 | 22.8 µM |
| COc1cc2c(C=C3C(=O)Nc4ccccc43)c[nH]c2cc1C | NCI-60 panel | – | – | – | CC50 | 55 µM |
| CC/C(=C(\c1ccc(O)cc1)c1ccc(OCCN(C)CCOCCOCCOCCOCCOCCOCCOCCOCCOCCOCCOCCN(C)CCOc2ccc(/C(=C(/CC)c3ccccc3)c3ccc(O)cc3)cc2)cc1)c1ccccc1 | U2OS transfected with ERα | – | 10 µM, cytotoxicity | – | cell density | 8% |
| CC(=O)OC[C@H]1O[C@@H]([Se]c2ccc([N+](=O)[O-])cc2[N+](=O)[O-])[C@H](OC(C)=O)[C@@H](OC(C)=O)[C@@H]1OC(C)=O | J774 | cell growth or viability, WST-1 | 24 h | – | CC50 | 19.3 µM |
| N#Cc1cc(C(=O)OCC[18F])c(C(F)(F)F)nc1N1CCN(C(=O)Cc2ccccc2)CC1 | bEnd.3 monolayer transwell | – | concentration not given | – | permeability | 19.6% |
| COCCn1cc2c(n1)CN(C(=O)Nc1nc(-c3ccc(F)cc3F)ccc1N)C2 | human bone marrow erythroid progenitors | – | 10 µM, 14 days | reference: untreated | colony formation | 40% |
| CC/C(=C(\c1ccc(O)cc1)c1ccc(OCCN(C)CCOCCOCCN(C)CCOc2ccc(/C(=C(/CC)c3ccccc3)c3ccc(O)cc3)cc2)cc1)c1ccccc1 | U2OS transfected with ERα | – | 10 µM, cytotoxicity | – | cell density | 80% |
| CC(=O)OC[C@H]1O[C@@H](Sc2sc(C(=O)c3ccc(Br)cc3)c(N)c2-c2nc3ccccc3s2)[C@H](OC(C)=O)[C@@H](OC(C)=O)[C@@H]1OC(C)=O | Huh7.5, uninfected | – | 72 h | – | non-toxic concentration | 100 µg/mL |
| O=C(CCC(CCC(=O)N[C@@H](Cc1ccc(O)cc1)C(=O)O)(CCC(=O)N[C@@H](Cc1ccc(O)cc1)C(=O)O)NC(=O)CCOCC(COCCC(=O)NC(CCC(=O)N[C@@H](Cc1ccc(O)cc1)C(=O)O)(CCC(=O)N[C@@H](Cc1ccc(O)cc1)C(=O)O)CCC(=O)N[C@@H](Cc1ccc(O)cc1)C(=O)O)(COCCC(=O)NC(CCC(=O)N[C@@H](Cc1ccc(O)cc1)C(=O)O)(CCC(=O)N[C@@H](Cc1ccc(O)cc1)C(=O)O)CCC(=O)N[C@@H](Cc1ccc(O)cc1)C(=O)O)COCCC(=O)NC(CCC(=O)N[C@@H](Cc1ccc(O)cc1)C(=O)O)(CCC(=O)N[C@@H](Cc1ccc(O)cc1)C(=O)O)CCC(=O)N[C@@H](Cc1ccc(O)cc1)C(=O)O)N[C@@H](Cc1ccc(O)cc1)C(=O)O | RD | cell growth or viability, MTS | 72 h | – | CC50 | > 30 µM |
| O=C(OCc1cccc(O)c1O)c1ccc(O)c(CO)c1 | human PBMC | – | 20 µM, 48 h | – | cytotoxicity | not toxic |
| CC(C)CCC[C@@H](C)[C@H]1CCC([C@@H]2CC[C@H]3C[C@H](O)CC[C@]3(C)[C@H]2O)[C@]1(C)CC(=O)O (some centres unmarked) | HEK293T | CellTiter-Blue | concentration not given | – | viability | > 100% |
| [99Tc+].[C-]#[N+]CC(C)(C)OC.[C-]#[N+]CC(C)(C)OC.[C-]#[N+]CC(C)(C)OC.[C-]#[N+]CC(C)(C)OC.[C-]#[N+]CC(C)(C)OC.[C-]#[N+]CC(C)(C)OC | human sandwich-cultured hepatocytes | – | – | reference: total efflux | canalicular efflux fraction | 28.3% |
| CCCCn1cc(C(=O)O)c(=O)c2cc(F)c(Nc3cccc(OC)c3)c([N+](=O)[O-])c21 | PC-3 | cell growth or viability, SRB | – | – | IC50 | 303 µM |
| CCc1c(CC2CCCCC2)nc(SCC(=O)c2ccccc2)[nH]c1=O | human PBMC | cell growth or viability | – | – | CC50 | > 200 µM |
| CCCCn1cc(C(=O)O)c(=O)c2cc(F)c(Nc3cc(OC)c(OC)c(OC)c3)c([N+](=O)[O-])c21 | PC-3 | cell growth, sulforhodamine B | 72 h | – | IC50 | 24.3 ± 2.59 µg/mL |
| CC/C(=C(\c1ccc(O)cc1)c1ccc(OCCN(C)CCOCCOCCOCCOCCN(C)CCOc2ccc(/C(=C(/CC)c3ccccc3)c3ccc(O)cc3)cc2)cc1)c1ccccc1 | U2OS transfected with ERα | – | 10 µM, cytotoxicity | – | cell density | 61% |
| CCCCCCCCCCCCCCCC(=O)NCCCC[C@H](NC(=O)[C@H](CCCNC(=N)N)NC(=O)[C@H](CCCCNC(=O)CCCCCCCCCCCCCCC)NC(C)=O)C(=O)O | SK-OV-3 | cell proliferation | 100 µM, 24 h, 37 °C, serum-containing medium | – | inhibition | 1% |
| CC(=O)N[C@@H]1[C@@H](OC(C)=O)[C@H](OC(C)=O)[C@@H](COC(C)=O)O[C@H]1[Se]Cc1ccc([N+](=O)[O-])cc1 | J774 | cell growth or viability, WST-1 | 24 h | – | CC50 | 8.6 µM |
| CC(C)Cc1ccc(C(C)C(=O)N/N=C/c2ccc(OCC(=O)N/N=C/c3ccc([N+](=O)[O-])cc3)cc2)cc1 (centres unmarked) | HEK293 | MTT | 10 µM, 48 h | – | viability | 49.3% |

For quick reference, copied from above:
| Structure (SMILES) | cell line | test | conditions | scale | measurement | value |
| --- | --- | --- | --- | --- | --- | --- |
| CC(=O)N[C@H](C(=O)N[C@H](C(=O)N[C@@H](CCCNC(=N)N)C(=O)N1Cc2ccccc2C[C@H]1C(=O)N[C@@H](Cc1ccccc1)C(N)=O)C1CCCCC1)C(C)C | human PBMC | Bio-Plex multiplex, measured: FGF | 250 µg/mL, 24 h | – | cytokine level | < 4.5 pg/mL |
| CC(=O)N[C@@H]1[C@@H](OC(C)=O)[C@H](OC(C)=O)[C@@H](COC(C)=O)O[C@H]1[Se]Cc1ccc([N+](=O)[O-])cc1 | J774 | cell growth or viability, WST-1 | 24 h | – | CC50 | 8.6 µM |
| O=c1c(Br)c2oc3c(CN(Cc4ccccn4)Cc4cnccn4)c(O)ccc3nc-2c2ccccc12 | RAW 246.7 | colocalisation with ER-Tracker | – | – | Pearson's coefficient | 0.575 |
